Assay results of several laboratories.
T1: RNA aptamer; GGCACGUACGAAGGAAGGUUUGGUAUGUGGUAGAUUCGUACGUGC
Chain of UniProt Q14145 (whole entry, unmodified, looked up): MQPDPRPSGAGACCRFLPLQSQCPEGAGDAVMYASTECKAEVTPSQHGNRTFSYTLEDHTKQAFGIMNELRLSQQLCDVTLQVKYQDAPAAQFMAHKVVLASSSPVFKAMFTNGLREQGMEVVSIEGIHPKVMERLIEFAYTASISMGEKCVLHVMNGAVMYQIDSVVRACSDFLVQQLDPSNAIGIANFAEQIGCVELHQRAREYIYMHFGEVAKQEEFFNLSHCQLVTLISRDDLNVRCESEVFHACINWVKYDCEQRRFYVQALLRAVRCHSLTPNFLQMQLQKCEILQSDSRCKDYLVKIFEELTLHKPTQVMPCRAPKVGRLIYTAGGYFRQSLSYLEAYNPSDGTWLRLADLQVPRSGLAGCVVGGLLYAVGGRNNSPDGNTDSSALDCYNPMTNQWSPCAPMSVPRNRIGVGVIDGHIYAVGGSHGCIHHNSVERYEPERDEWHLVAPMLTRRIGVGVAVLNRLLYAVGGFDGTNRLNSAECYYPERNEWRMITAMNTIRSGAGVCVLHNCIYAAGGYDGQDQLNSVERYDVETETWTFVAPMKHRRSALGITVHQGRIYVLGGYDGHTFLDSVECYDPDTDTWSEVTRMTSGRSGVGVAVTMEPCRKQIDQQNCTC
Chain of UniProt P97287 (152-308, looked up): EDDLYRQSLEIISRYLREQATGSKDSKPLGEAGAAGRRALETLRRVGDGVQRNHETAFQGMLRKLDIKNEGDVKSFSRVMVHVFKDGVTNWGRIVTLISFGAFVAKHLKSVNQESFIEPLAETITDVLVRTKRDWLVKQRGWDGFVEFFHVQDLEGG
Chain of UniProt Q96T76 (whole entry, looked up): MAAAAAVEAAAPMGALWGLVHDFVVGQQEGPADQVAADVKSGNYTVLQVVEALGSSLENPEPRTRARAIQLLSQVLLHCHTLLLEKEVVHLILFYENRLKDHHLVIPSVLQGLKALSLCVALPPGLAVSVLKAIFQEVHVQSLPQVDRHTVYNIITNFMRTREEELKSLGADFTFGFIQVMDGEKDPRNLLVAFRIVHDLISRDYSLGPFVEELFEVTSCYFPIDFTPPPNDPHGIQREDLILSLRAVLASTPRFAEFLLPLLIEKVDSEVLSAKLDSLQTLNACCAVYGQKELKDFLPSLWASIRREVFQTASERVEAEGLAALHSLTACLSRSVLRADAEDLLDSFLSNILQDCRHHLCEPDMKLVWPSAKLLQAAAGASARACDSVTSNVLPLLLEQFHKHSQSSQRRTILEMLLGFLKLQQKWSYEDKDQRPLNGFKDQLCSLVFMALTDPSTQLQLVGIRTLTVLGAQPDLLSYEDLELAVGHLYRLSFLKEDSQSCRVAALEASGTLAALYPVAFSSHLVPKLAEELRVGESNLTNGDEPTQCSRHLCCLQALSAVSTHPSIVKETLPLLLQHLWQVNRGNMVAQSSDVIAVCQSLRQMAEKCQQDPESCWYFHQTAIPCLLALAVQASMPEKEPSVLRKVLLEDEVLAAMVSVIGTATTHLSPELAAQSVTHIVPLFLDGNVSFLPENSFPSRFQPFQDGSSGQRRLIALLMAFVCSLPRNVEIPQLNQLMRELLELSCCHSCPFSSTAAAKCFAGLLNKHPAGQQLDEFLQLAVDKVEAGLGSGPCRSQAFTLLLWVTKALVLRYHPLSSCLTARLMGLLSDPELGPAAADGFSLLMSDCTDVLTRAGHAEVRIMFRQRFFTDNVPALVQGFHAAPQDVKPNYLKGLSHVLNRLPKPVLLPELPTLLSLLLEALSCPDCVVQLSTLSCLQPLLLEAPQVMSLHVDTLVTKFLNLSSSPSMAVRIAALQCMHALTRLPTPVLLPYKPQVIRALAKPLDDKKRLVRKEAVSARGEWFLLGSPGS
Chain of UniProt O15151 (whole entry, unmodified, looked up): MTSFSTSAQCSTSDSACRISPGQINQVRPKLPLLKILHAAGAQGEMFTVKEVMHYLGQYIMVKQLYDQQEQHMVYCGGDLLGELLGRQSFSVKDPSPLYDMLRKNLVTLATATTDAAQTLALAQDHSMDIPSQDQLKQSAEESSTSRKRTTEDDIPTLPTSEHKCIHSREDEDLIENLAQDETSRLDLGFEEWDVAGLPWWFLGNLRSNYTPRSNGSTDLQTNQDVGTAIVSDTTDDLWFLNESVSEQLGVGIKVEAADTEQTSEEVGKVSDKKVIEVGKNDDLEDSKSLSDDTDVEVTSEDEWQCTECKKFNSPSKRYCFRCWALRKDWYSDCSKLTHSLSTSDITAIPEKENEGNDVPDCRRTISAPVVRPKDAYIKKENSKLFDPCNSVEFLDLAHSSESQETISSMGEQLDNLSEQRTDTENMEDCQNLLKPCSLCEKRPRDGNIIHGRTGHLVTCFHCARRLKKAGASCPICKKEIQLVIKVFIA
Chain of UniProt P54132 (whole entry, looked up): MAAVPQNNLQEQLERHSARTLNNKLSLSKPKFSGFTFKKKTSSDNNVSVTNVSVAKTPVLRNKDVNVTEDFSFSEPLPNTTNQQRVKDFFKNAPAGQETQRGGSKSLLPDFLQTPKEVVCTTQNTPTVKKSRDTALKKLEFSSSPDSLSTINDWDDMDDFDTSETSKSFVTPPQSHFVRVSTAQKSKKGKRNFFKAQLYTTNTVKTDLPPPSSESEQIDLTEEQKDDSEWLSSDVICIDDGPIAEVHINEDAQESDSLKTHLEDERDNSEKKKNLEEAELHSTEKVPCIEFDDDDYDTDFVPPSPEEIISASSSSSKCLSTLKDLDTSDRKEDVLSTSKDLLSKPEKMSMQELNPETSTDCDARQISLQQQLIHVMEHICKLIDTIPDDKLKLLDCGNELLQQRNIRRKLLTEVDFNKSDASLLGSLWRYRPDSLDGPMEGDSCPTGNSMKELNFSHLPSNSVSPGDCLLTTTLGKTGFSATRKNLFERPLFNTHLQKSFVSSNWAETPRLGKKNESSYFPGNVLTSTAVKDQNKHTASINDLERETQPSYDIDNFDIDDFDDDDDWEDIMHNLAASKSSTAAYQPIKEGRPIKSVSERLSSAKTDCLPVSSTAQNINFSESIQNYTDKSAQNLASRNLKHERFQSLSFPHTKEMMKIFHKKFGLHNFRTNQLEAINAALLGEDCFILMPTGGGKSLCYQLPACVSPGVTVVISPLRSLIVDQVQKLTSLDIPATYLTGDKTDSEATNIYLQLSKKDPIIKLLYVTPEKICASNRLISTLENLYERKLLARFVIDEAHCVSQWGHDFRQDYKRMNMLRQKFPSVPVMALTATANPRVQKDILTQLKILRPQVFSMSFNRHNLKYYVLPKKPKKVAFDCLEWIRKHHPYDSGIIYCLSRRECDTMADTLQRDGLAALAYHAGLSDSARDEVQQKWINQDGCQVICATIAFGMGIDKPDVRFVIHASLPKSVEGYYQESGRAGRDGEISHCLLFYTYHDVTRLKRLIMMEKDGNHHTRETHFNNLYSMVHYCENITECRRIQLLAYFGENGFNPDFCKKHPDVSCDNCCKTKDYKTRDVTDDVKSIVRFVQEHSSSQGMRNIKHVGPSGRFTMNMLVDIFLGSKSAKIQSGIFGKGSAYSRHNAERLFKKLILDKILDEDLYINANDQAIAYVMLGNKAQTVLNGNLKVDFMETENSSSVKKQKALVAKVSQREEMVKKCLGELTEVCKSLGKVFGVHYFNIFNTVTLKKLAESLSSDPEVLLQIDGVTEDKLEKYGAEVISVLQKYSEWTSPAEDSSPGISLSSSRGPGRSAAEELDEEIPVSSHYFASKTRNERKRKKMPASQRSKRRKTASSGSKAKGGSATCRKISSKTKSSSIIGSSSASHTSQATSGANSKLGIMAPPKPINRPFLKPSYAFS
Chain of UniProt P0AC13 (whole entry, looked up): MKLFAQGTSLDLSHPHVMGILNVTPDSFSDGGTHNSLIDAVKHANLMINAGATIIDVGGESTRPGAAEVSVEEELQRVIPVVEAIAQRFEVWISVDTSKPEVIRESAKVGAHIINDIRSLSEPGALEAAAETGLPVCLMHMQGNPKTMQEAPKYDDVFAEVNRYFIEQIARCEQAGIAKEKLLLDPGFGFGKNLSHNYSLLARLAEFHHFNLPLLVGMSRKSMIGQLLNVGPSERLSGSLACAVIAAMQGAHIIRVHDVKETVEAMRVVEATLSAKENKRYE
Chain of UniProt Q13148 (whole entry, looked up): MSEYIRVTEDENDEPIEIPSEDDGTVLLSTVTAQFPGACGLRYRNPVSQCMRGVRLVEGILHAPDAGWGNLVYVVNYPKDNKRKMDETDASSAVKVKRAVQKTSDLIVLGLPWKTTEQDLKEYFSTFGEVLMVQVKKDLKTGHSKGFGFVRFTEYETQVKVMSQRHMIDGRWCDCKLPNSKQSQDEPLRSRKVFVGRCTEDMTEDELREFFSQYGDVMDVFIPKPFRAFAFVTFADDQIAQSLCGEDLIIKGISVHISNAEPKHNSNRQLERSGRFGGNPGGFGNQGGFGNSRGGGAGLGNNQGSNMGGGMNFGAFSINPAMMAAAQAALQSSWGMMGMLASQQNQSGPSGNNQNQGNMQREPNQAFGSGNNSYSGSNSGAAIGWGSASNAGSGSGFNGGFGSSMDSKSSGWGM

`C[C@](O)(c1cccc(F)c1)c1cn(CSc2ccccc2)nn1` gave a ΔTm of 1.38 °C (Protein Mdm4 (MDM4, Homo sapiens, UniProt O15151); thermal stability, DSF; 30 µM).
Under “isoTOP-ABPP competition ratio”, `CCCCCC=CC=C1C(=O)C=CC1CC=CCCCC(=O)O` (stereo not shown) is recorded as 5.7 (MMS19 nucleotide excision repair protein homolog (MMS19, Homo sapiens, UniProt Q96T76); competitive isoTOP-ABPP; Ramos soluble proteome; 100 µM, 60 min, together with: iodoacetamide probe; relative to: DMSO over compound-treated, higher = stronger cysteine blockade).
`CC(=O)N[C@@H](CO)C(=O)N[C@@H](CC(C)C)C(=O)N[C@@H](CCC(=O)O)C(=O)N[C@@H](CCC(=O)O)C(=O)N1CCC[C@H]1C(=O)N[C@@H](Cc1c[nH]cn1)C(=O)N[C@@H](COP(=O)(O)O)C(=O)N1CCC[C@H]1C(=O)N[C@@H](CCC(=O)O)C(=O)N[C@H](C(=O)NCC(=O)N[C@@H](CCC(=O)O)C(=O)N[C@@H](CCCCN)C(=O)N[C@H](C(=O)N[C@H](C(=O)N[C@@H](C)C(=O)NCC(=O)N[C@@H](CCC(=O)O)C(=O)N[C@H](C(=O)N[C@@H](CC(N)=O)C(N)=O)C(C)C)C(C)C)C(C)C)[C@@H](C)O` has a TΔS of -2.48 kcal/mol (Kelch-like ECH-associated protein 1, Kelch domain (KEAP1, Homo sapiens, UniProt Q14145); binding, ITC; pH 7, 298.15 K).
The off-rate increase of `C=CC(=O)N1C[C@H](C)N(c2nc(OC[C@@]34CCCN3C[C@H](F)C4)nc3c(F)c(-c4ccc(F)c5sc(N)c(C#N)c45)c(C(F)(F)F)cc23)C[C@H]1C` is reported as 460 fold (GTPase KRas, GppNHp-bound (KRAS, Homo sapiens, UniProt P01116); SPR; wild type; relative to: GppNHp-bound over GDP-bound).
`O=C1c2sc(-c3ccc(N4CCC(F)C4)nc3F)nc2CCN1c1cccnc1` (stereo not shown) has a specific binding of 104 nM (TAR DNA-binding protein 43, aggregated (TARDBP, Homo sapiens, UniProt Q13148); saturation autoradiography; human, FTLD-TDP type A brain sections; 25 nM).
`COc1ccccc1-c1ccncc1C(=O)Nc1nnc(OCc2ccc(Cl)cc2)s1` has a remaining activity of 107% (RecQ-like DNA helicase BLM, residues 636–1298 (BLM, Homo sapiens, UniProt P54132); ATPase activity, ADP-Glo; 0.03 µM, 1 h).
For `COc1ccc(C(N)=O)c[n+]1C`, the dissociation half-life was 3.5 s (Nicotinamide N-methyltransferase, SAM-bound (Rattus norvegicus, UniProt A0ABK0M0V0); product complex binding, surface plasmon resonance; 37 °C, together with: SAM).
`CN(Cc1nn(C)c2nc(N)[nH]c(=O)c2c1=O)c1nnn[nH]1`: “melting temperature shift” 18.7 °C (Dihydropteroate synthase (folP, Bacteria, UniProt P0AC13); CETSA HiBiT; Escherichia coli, cell lysate; concentration not given; relative to: DMSO).
For `CC[C@H](C)[C@H](NC(=O)[C@H](CCC(=O)O)NC(=O)[C@H](CCCNC(=N)N)NC(=O)[C@H](C)NC(=O)[C@H](Cc1c[nH]c2ccccc12)NC(=O)[C@H](CCC(=O)O)NC(=O)[C@H](CCC(=O)O)NC(=O)[C@H](CCC(=O)O)NC(C)=O)C(=O)NCC(=O)N[C@@H](C)C(=O)N[C@@H](CCC(N)=O)C(=O)N[C@@H](CC(C)C)C(=O)N[C@@H](CCCNC(=N)N)C(=O)N[C@@H](CCCNC(=N)N)C(=O)N[C@@H](C)C(=O)NCC(=O)N[C@@H](CC(=O)O)C(=O)N[C@@H](CC(=O)O)C(=O)N[C@@H](CC(C)C)C(=O)N[C@@H](CC(N)=O)C(=O)N[C@@H](C)C(=O)N[C@@H](CCC(N)=O)C(=O)N[C@@H](Cc1ccc(O)cc1)C(=O)N[C@@H](CCC(=O)O)C(=O)N[C@@H](CCCNC(=N)N)C(=O)N[C@@H](CCCNC(=N)N)C(=O)N[C@@H](CCCNC(=N)N)C(N)=O`, the koff was 0.0002 s⁻¹ (Induced myeloid leukemia cell differentiation protein Mcl-1 homolog, residues 152-308 (Mus musculus, UniProt P97287); binding, SPR; 0.2% DMSO).
`Cc1ccc2c(c1)N(C)C=CC2=Cc1sc2ccccc2[n+]1C` has a Kd of 0.31 nM (T1, RNA aptamer; fluorescence titration).

For quick reference, copied from above:
`Cc1ccc2c(c1)N(C)C=CC2=Cc1sc2ccccc2[n+]1C` has a Kd of 0.31 nM (T1, RNA aptamer; fluorescence titration).
